Results of several laboratories.
Each numbered part is a random draw from the data of one study; scales do not carry over between parts. Changes are numbered by the printed parent chain.

Sample 1
Target: RING finger protein unkempt homolog, zinc fingers 1-6, GST-SBP tag (UNK, Homo sapiens, UniProt Q9C0B0, residues 30-357)
UniProt Q9C0B0, sequence (30-357, looked up): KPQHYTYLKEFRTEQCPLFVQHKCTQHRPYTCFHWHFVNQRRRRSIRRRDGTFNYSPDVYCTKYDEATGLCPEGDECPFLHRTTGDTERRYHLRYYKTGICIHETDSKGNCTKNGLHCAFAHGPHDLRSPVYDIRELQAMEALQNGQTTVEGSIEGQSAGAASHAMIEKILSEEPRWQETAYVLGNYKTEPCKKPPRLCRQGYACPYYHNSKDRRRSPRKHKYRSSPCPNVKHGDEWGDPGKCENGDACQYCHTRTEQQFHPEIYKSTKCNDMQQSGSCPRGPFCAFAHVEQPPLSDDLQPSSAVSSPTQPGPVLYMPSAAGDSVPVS
Technique: RNA Bind-n-Seq
Molecule type: RNA
Matrix: in vitro
Tested at: not given
Setting: RNA with constant flanks, human-mouse chimeric sites, ends assumed
Reference: input RNA pool
Reading: higher = stronger binding
Measurement: bound/input enrichment
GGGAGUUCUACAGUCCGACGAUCGCUGGAUCUUCUAAAUACCAGUGGGACAUUAUGAAAUCCCUUGGGCUCUCUGAUGACGACAUAGUGAAGUUUUCUGAAGCAGAGCACUGGCUUGAUUAUUUCCCACCACUGGCCGUUCAGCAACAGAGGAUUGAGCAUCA: 0.151 ratio
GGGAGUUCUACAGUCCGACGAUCUUAAACACCAAGCUGAUGUAAAUGUUUGGCCUCCAUCUCUCAGGCACGUGUGCCUUCUCUUAGUCCCUGUUUUCGGGAUGUUAUGAAUCUCAGUACUGUGGUUUGAAAGCACCAGCUUUGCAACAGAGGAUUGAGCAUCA: 0.154 ratio
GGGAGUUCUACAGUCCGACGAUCGUAGCUGGGACUACAGAAAUGCUGGUAAUUUCAGUCACUUGCUGAUGACUUCUGAUGUCCCAGCAAAUAAUGCCACACACUGCAAUAGAGAAGAUACUUCUGAGGACCCACGUCUAAGGUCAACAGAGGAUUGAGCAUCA: 0.591 ratio
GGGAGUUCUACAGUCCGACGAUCGAGCCCAGCCGGCAGUUUGUAAAGGACUCCAUUCGGCUGGUUAAAAGAUGCACCAAACCCGACAGAAAAGAAUUCCAGAAGAUUGCCAUGGCUACAGCAAUAGGAUUUGCUAUCAUGGGACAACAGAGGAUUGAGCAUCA: 0.15 ratio
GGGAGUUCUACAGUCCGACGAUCUACUCAACUUUCUUUCCACAUUUUGAAUUCCAAGACAUUAUUCCUCCAGAUGACUUCCUAACUAGUGAUGAAGAGCAAGAUUUGGUUUUAUUUGGAACUAUGAGAGGACAAGUUGUUGGACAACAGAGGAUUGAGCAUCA: 0.26 ratio
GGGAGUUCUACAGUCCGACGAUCCAGUCCCCGUGUCCCAGUGCAGGACGAUGUGAACAAAUCGAAGACAUGGACCCUCUAUUGUAGUUCUUGAUUCUCGAAAUGUGCUAUUAUUGUUUGUCUUUUUUUUUUUUUUUUUAAAGACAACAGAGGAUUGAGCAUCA: 1.34 ratio
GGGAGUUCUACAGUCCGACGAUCUCUGGUCACACUCGUGUGUAUGGUGUUUGCUUUGUGGACACUUCACUGGGAAAGUUUUUCAUCGGCCAGUUUUCGGAUGACCGCCACUGUUCGAGAUUUAGGACGCUAGUGGCUCACUAUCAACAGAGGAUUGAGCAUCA: 0.223 ratio
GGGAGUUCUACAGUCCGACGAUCACCAUUUUCGCGGUUCAGGCUUUGUGUGUAGUUCACUUACGGUAUUAAAUUAUUAUUGCCCUUAGUUUAUAAUAAGGAUAAUUGCAUGAUUUAAGUAUACUGAAUGUUACUCUGAAACUUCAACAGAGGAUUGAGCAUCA: 0.238 ratio
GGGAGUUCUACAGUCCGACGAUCCAGCUGCGAGGCCGCGGUUUCCCCCUGGGUGUGCUGAGCAGCAGCCAUGGGCAUCAAAUUUUUAGAAGUUAUCAAACCAUUCUGUGCAGUUCUACCAGAAAUUCAGAAACCGGAAAGGAACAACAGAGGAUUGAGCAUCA: 0.885 ratio
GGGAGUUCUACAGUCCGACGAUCAAACAUCUGUCUUUAAGCAUUCCAAGCGAGAAUGCUGGGGUGAUCAUUGUUGCCCAUGUGCCUUCUGUAAUAGAUGGAAUGCUGUUCCAUGUUACAUCUUUCCUUCACUCCAGAAUUGUUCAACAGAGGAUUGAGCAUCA: 0.122 ratio
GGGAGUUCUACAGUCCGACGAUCGUAAUGGACGUUAAUACUGCUCUACAAGAGGUGCUGAAGACCGCCCUCAUCCACGAUGGCCUAGCACGUGGAAUUCGCGAAGCUGCCAAAGCCUUAGACAAGCGCCAAGCCCAUCUGUGUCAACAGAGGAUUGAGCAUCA: 0.434 ratio

Sample 2
Target: CCND1, cyclin fold, Cln2 fusion (human)
Technique: yeast growth competition, sequencing
Matrix: yeast
Setting: strong parent motif
Reference: not given
Reading: higher = stronger binding
Measurement: normalised enrichment score
Parent: E2F1 docking peptide (human); PPVKRRLDFETDH; partner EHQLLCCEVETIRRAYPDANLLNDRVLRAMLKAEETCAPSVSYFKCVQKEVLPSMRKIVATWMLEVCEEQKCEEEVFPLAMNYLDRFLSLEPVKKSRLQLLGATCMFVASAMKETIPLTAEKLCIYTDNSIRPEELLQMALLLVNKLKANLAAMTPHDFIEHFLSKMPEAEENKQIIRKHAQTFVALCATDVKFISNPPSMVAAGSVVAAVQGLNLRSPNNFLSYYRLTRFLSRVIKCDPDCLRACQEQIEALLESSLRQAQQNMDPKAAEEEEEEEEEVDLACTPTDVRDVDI
T11E: 3.27
L7Y: 0.0651
V3F: -0.458
T11R: 1.84
K4C: 4.77
T11G: 2.88
L7C: 0.451
P2T: 2.18
P2N: 2.49
R6C: 2.35
E10M: 1.79
V3D: 0.028
T11L: 2.81
V3T: 3
V3H: 0.401
D8H: 1.49
D8G: 0.5
R5C: 0.968
L7T: 0.225
D12G: 2.91
D12I: 2.99
F9N: 0.216
K4S: 3.14
E10R: 1.28
F9R: 0.259

Sample 3
Target: Prothrombin, mature alpha-thrombin (F2, Homo sapiens, UniProt P00734)
Technique: aptamer microarray, sandwich
Molecule type: DNA with 2'F-ANA
Matrix: in vitro
Tested at: 200 nM
Setting: whole 15-mer aptamer, many near background
Added: Cy3 exosite-II aptamer, 400 nM
Reading: higher = stronger binding
Measurement: mean fluorescence intensity
Oligonucleotide: GGTTGGTGTGGTTGG
2'F-ANA at 6 9 12 13 14 15: 172 a.u.
2'F-ANA at 2 5 10 12: 50.9 a.u.
2'F-ANA at 1 5 7 8 9 10 11 12 13 14: 64.8 a.u.
2'F-ANA at 1 2 3 4 5 6 7 9 10 12 13 15: 90.9 a.u.
2'F-ANA at 1 3 7 12 14 15: 146 a.u.
2'F-ANA at 2 11 13 15: 278 a.u.
2'F-ANA at 4 7 9 11 13 14 15: 74.3 a.u.
2'F-ANA at 1 3 4 7 11 13: 175 a.u.
2'F-ANA at 2 3 6 7 8 10 11 12 13 15: 327 a.u.
2'F-ANA at 1 2 6 11 12 13 14: 66.2 a.u.
2'F-ANA at 2 4 6 7 8 9 10 11: 77.6 a.u.
2'F-ANA at 1 3 5 6 10 13 14 15: 49.1 a.u.
2'F-ANA at 1 3 8 10 14 15: 58.9 a.u.
2'F-ANA at 1 4 7 9 11 12 15: 201 a.u.
2'F-ANA at 3 6 9 10: 462 a.u.
2'F-ANA at 3 4 5 7 8 9 10 12 15: 67.1 a.u.
2'F-ANA at 1 2 4 5 7 10 11 15: 44.7 a.u.
2'F-ANA at 1 2 8 10 11 14 15: 49.9 a.u.
2'F-ANA at 3 4 5 8 11 13 14: 49.3 a.u.
2'F-ANA at 3 5 6 7 9 10: 56.5 a.u.
2'F-ANA at 2 4 5 8 10 14: 143 a.u.
2'F-ANA at 3 5 7 8 9 10 11 12 13 15: 67 a.u.
2'F-ANA at 1 2 6 7 9 15: 140 a.u.
2'F-ANA at 1 2 8 10 12 14 15: 49.1 a.u.
2'F-ANA at 3 4 12 14: 430 a.u.

Sample 4
Target: Histone acetyltransferase KAT6A, both winged helices, GST fusion (KAT6A, Homo sapiens, UniProt Q92794, residues 1-181)
Technique: protein binding microarray
Molecule type: double-stranded DNA, one strand shown
Matrix: in vitro
Tested at: not given
Setting: 8-mer, flanks averaged, mean of 2 arrays, mostly near background
Reference: not given
Reading: higher = stronger binding
Measurement: E-score
Construct (chain): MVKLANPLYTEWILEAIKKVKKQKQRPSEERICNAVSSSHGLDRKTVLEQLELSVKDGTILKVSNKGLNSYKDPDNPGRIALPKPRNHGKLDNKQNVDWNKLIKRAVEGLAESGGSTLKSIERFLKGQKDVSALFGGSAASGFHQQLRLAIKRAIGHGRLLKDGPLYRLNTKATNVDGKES
AACACCTC: -0.12
ACAAGGCG: 0.117
CAAGGAAA: -0.139
CTTGCCTC: -0.0174
CGCACGAG: 0.144
CAGCTCTA: -0.0624
CGAGCAAG: -0.0892
ACGGGTTG: 0.251
CGACCTGA: 0.000335
GATCCACA: -0.147
AAATCGAA: -0.0919
AGCTGCCG: 0.13
CGCAGCCG: 0.177
CACCTTGA: -0.122
CCAGGTTC: -0.131
CCTCTTCC: -0.116
GGCTCGGA: 0.119
AAAAGCGC: 0.301

Sample 5
Target: Ras GTPase-activating protein-binding protein 1, full length (G3BP1, Homo sapiens, UniProt Q13283)
UniProt Q13283, sequence (whole entry, looked up): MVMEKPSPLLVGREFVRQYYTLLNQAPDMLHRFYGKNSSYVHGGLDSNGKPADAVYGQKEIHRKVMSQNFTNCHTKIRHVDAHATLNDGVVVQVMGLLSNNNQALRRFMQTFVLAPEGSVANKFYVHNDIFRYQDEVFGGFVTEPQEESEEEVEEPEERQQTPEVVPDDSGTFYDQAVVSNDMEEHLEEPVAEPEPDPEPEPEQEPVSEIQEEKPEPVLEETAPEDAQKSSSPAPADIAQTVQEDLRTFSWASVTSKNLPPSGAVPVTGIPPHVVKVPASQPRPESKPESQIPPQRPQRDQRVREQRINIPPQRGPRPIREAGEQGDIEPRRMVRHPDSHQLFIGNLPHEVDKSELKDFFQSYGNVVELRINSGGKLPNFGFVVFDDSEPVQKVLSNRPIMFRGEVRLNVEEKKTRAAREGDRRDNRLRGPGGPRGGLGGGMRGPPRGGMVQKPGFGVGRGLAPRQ
Technique: RNA Bind-n-Seq
Molecule type: RNA
Matrix: in vitro
Tested at: 200 nM
Setting: whole 134-nt RNA, ends assumed
Added: 150 mM KCl
Reference: input library
Reading: higher = stronger binding
Measurement: log2 enrichment
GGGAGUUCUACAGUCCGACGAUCCUGUGCUACACAUCGUAUGUACCGAAUCAAAUUUUUUUAAACCCCCCCAAAUUUUUUUAAAAAAGUAUUAUGUUACGCCGUUCGGAUCUGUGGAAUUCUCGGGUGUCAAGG: -0.12
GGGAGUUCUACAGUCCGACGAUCCUGUGCUACACAUCGUAUGUACCGAAUCGGGGUUUUUUUGGGUUUUUUUGGGGUUUUUUUGGAAAGUAUUAUGUUACGCCGUUCGGAUCUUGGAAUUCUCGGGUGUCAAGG: -0.662
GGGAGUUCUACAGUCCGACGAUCUGGCCCUGGUGGCAUGCGGGGAGGAAGAGGUGGCCUCAUGGAUCGUGGUGGUCCCGGUGGAAUGUUCAGAGGUGGCCGUGGUGGAGACAAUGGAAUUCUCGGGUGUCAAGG: 0.102
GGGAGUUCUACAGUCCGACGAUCGCAGGAAGUAAAAACAAAUGGAAAUGCUUCGGAUAGUGGCAGGGGUGGGGGUUGCUAAGGAAACGGUGGGAUGGGAGUGGGUAAAGAGUUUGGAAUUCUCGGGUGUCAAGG: 0.735
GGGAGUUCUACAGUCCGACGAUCGUCCUGUGCUACACAUCGUAUGUACCGAAUCGGGAAAAAAGGAAAAAAGGAAAAAAGGGAAAGUAUUAUGUUACGCCGUUCGGAUCUGCAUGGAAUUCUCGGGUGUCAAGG: -0.677
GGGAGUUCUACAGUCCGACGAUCAGUCCUGUGCUACACAUCGUAUGUACCGAAUCAAACCCCCAAACCCCCAAAUUUAAAAAAGUAUUAUGUUACGCCGUUCGGAUCUGCACUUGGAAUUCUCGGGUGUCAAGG: -0.374
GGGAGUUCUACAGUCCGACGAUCACCAUGCAGGUGGGCAUCUUUGGGAAGUGGGGCAAGGGGGGGAUAGGGAGGGGGGUAAAACUUUGGGAACAGGUGGUCCCAGGUCGUUUCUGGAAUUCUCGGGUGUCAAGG: 1.08
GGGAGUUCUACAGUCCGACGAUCCUGUGCUACACAUCGUAUGUACCGAAUCGGGGCCCCCCGGGGCCCCCCGGGCCCCCCGGGGAAAGUAUUAUGUUACGCCGUUCGGAUCUGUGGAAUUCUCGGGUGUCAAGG: -1.01
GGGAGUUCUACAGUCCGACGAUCCCUCAAGUCCUGUGCUACACAUCGUAUGUACCGAAUCGGAAAGGUGGUUUGGAAAGUAUUAUGUUACGCCGUUCGGAUCUGCACUUCCAGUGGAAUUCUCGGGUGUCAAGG: -0.529
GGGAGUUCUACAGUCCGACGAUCUUCGUUUUUUUCCUUAGUCUGAAGUUGCAGCCGGAGUGAAGAAGAGCGGACCGCUGCCCAGUGCUGAGGUAGAGUGUCGGAUCUGUUUUCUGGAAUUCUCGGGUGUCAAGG: -1.89
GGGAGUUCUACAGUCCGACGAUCACCAUGCAGGUGGGCAUCUUUGGGAAGUGGGGCAAGGGGGGGAUAGGGAGGGGGGUAACACUUUGGGAACAGGUAGUCCCAGGUCGUUUCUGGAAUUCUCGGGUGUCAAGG: 1.18
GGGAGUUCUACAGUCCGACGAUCCCUGUGCUACACAUCGUAUGUACCGAAUCGGGAAAAAAAGGGAAAAAAAGGGAAAAAGGGAAAGUAUUAUGUUACGCCGUUCGGAUCUGCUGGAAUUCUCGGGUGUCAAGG: -0.981
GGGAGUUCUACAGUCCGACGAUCUCCUGUGCUACACAUCGUAUGUACCGAAUCGGGGUGGGGAAAAAGGGGAAAAAAAGGGGAAAGUAUUAUGUUACGCCGUUCGGAUCUGCAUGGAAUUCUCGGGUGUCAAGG: 0.654
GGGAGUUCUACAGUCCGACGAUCAGUCCUGUGCUACACAUCGUAUGUACCGAAUCGGUUUUUUUGGUUUUUUUGGAAAGGAAAGUAUUAUGUUACGCCGUUCGGAUCUGCACUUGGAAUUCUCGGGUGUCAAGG: -1.59

Excerpt of the above (sample 3):
2'F-ANA at 1 2 6 11 12 13 14: 66.2 a.u.
2'F-ANA at 2 11 13 15: 278 a.u.
2'F-ANA at 4 7 9 11 13 14 15: 74.3 a.u.
2'F-ANA at 1 3 8 10 14 15: 58.9 a.u.
2'F-ANA at 1 5 7 8 9 10 11 12 13 14: 64.8 a.u.
2'F-ANA at 3 5 7 8 9 10 11 12 13 15: 67 a.u.
2'F-ANA at 2 5 10 12: 50.9 a.u.
2'F-ANA at 1 2 8 10 11 14 15: 49.9 a.u.
